Assay results collected from several papers.
Lines come from different studies, so protocols differ.
UGT1A4: UDP-glucuronosyltransferase 1A4 (UGT1A4, Homo sapiens, UniProt P22310)
Chain of UniProt P22310 (whole entry, looked up): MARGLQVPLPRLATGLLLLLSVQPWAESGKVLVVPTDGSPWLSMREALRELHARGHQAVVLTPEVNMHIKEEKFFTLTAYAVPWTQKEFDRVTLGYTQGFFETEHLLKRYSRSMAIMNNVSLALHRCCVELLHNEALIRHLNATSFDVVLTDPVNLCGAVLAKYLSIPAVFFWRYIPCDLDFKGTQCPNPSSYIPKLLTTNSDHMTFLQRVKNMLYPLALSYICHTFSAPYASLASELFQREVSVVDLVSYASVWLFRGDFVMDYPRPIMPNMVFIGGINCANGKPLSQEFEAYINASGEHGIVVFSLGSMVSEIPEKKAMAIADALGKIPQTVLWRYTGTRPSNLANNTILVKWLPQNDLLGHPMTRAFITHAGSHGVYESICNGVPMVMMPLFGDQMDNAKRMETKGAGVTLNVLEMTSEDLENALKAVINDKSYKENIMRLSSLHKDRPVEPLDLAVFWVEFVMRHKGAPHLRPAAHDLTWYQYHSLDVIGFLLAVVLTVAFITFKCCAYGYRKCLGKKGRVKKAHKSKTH
Chain of UniProt P45983 (whole entry, looked up): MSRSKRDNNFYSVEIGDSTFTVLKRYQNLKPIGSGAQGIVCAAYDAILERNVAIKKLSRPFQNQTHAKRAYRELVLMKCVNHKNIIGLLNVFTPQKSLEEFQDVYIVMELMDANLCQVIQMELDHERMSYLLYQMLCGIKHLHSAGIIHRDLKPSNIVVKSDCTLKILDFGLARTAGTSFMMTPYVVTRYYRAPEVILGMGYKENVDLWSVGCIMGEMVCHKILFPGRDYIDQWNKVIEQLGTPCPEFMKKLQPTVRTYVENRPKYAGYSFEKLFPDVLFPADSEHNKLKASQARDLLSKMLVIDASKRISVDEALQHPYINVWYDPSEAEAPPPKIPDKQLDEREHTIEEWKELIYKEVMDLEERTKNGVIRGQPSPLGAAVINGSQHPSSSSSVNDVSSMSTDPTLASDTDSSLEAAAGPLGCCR
Chain of UniProt P49137 (whole entry, looked up): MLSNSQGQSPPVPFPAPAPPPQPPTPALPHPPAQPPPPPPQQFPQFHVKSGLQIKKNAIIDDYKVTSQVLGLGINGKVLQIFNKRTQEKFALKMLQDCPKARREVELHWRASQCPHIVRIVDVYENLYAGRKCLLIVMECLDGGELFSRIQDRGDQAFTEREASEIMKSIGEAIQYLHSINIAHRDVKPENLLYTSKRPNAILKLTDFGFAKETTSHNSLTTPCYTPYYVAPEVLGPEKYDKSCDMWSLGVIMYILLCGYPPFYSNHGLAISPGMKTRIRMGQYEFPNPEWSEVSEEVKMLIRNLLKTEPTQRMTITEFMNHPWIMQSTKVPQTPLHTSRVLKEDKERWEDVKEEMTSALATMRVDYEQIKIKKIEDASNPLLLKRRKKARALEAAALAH
Chain of UniProt O14920 (whole entry, looked up): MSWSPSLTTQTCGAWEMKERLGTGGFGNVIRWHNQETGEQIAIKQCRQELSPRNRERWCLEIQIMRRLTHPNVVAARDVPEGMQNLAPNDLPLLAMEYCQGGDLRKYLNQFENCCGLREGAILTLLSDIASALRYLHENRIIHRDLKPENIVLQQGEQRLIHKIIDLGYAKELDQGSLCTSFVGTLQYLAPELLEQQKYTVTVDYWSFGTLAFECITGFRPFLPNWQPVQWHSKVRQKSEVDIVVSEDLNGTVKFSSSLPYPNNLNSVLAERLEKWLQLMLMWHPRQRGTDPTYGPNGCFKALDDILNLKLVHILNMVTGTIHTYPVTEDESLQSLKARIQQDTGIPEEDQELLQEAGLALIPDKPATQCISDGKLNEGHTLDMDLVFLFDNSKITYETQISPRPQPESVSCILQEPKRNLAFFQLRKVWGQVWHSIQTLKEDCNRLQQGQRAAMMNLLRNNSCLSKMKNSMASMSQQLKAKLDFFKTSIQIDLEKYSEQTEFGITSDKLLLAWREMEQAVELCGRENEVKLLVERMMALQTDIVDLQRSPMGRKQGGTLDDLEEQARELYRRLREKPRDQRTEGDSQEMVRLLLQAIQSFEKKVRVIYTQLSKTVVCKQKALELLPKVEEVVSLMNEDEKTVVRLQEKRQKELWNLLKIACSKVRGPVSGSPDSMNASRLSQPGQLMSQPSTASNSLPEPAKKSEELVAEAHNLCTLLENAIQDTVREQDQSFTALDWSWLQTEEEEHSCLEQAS
Chain of UniProt P48067 (whole entry, looked up): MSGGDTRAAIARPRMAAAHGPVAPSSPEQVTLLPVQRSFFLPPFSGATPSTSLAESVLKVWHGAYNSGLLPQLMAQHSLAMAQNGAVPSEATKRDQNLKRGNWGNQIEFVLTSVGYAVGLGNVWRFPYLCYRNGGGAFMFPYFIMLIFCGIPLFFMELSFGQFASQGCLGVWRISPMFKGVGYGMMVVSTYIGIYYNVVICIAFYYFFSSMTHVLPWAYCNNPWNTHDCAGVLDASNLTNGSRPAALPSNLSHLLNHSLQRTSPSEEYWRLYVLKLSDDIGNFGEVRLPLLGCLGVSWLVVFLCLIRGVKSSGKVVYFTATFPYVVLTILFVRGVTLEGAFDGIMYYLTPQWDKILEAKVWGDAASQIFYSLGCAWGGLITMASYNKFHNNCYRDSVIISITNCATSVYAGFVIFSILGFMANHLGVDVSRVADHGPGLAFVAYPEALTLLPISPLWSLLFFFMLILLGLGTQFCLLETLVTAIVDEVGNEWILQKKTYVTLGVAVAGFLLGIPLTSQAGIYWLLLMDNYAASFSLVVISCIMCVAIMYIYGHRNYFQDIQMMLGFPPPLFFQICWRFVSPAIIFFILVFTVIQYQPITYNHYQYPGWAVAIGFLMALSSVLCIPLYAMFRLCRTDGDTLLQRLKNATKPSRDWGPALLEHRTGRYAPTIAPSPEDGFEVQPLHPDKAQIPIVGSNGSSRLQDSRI
Chain of UniProt Q7KZI7 (whole entry, looked up): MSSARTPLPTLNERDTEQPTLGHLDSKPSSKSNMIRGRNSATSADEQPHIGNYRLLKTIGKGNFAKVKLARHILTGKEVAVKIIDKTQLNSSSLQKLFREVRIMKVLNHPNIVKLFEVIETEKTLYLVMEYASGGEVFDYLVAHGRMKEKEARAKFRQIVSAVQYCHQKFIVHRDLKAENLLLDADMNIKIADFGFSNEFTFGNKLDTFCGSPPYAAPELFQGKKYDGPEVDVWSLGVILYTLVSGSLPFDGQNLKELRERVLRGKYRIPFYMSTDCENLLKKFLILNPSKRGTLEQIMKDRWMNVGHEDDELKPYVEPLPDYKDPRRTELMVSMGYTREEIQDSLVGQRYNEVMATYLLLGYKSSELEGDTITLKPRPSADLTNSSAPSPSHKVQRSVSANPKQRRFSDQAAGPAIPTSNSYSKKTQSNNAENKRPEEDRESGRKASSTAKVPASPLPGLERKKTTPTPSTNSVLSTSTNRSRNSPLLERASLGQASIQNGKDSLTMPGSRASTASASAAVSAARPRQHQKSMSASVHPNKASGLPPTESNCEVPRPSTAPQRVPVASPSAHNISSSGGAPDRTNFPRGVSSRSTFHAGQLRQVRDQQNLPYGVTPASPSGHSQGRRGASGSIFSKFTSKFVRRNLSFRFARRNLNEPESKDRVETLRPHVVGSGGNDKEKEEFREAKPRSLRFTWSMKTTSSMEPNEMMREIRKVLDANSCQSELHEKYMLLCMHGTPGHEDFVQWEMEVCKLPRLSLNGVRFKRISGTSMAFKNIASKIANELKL
Chain of UniProt Q9UQM7 (whole entry, looked up): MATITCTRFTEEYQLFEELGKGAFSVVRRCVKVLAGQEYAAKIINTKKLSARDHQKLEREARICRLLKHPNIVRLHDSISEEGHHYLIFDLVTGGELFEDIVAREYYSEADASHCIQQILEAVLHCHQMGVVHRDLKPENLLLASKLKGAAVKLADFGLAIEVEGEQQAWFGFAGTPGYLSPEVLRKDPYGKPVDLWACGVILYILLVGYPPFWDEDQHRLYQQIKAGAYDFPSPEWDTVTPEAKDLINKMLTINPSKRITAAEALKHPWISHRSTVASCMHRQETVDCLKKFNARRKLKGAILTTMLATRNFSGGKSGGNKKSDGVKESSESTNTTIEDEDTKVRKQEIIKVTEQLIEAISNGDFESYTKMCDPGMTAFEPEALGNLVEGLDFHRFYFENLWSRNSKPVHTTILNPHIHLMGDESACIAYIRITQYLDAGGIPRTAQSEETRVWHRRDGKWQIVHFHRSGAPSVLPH
Chain of UniProt O94921 (whole entry, looked up): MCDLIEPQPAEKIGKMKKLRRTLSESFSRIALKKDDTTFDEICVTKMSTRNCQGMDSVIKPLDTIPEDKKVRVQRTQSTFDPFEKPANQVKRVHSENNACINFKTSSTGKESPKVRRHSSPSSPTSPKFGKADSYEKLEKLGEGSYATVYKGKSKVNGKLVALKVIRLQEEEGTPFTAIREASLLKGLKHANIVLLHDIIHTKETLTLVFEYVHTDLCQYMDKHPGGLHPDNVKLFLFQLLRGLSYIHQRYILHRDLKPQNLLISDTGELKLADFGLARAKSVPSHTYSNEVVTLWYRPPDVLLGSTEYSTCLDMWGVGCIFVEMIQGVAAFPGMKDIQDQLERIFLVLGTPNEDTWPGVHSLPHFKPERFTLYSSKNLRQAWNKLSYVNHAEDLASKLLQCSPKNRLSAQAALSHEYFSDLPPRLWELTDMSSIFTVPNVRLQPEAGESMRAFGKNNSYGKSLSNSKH
Chain of UniProt Q9P1W9 (whole entry, looked up): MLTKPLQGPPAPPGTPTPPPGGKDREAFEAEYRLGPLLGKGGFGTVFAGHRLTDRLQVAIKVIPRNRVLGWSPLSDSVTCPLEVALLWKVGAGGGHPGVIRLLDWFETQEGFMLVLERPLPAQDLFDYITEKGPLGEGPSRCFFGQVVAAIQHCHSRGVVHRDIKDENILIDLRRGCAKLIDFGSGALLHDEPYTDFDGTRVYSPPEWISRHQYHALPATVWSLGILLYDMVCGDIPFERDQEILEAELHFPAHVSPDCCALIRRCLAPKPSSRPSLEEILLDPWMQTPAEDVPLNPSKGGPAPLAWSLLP

SMILES = CNc1ncc2c(/C=C/C(=O)N3CCC(OC)CC3)nn(Cc3cccc(C(F)(F)F)c3)c2n1; target = MARK2 (Homo sapiens, UniProt Q7KZI7); test = kinase activity, inhibitor; conditions = 1 µM; scale = reference: untreated control; remaining activity = 92%
SMILES = Cc1cc(Nc2cc(N3CCN(C)CC3)nc(Sc3ccc(NC(=O)C4CC4)cc3)n2)[nH]n1; target = PIM2 (Homo sapiens, UniProt Q9P1W9); test = kinase activity, KinaseProfiler; conditions = 0.03 µM, species human; scale = reference: control; remaining activity = 104%
SMILES = NC/C(=C\F)COc1cccc(Cn2c(=S)[nH]c(=O)c3[nH]cnc32)c1; target = Myeloperoxidase (MPO, Homo sapiens, UniProt P05164); test = LDL lipid peroxidation, inhibitor, cholesteryl ester hydroperoxide; conditions = 0.00023 µM; remaining activity = 94.4%
SMILES = CNCC(=O)O; target = SLC6A9 (Homo sapiens, UniProt P48067); test = [3H]glycine uptake, inhibitor; system = HEK293F cells; conditions = 100 µM; scale = reference: cells without inhibitor; remaining activity = 97%
SMILES = COc1cc(Nc2ncc3c(n2)-c2ccc(Cl)cc2C(c2c(F)cccc2OC)=NC3)ccc1C(=O)O; target = PIM1; test = kinase activity; conditions = 1 µM; remaining activity = 100%
SMILES = COc1cc(-c2cncc3c2CN(C)Cc2cc(N4CCNCC4)ccc2-3)cc(OC)c1OC; target = CAMK2A (Homo sapiens, UniProt Q9UQM7); test = kinase activity; conditions = 1 µM, human enzyme, with: ATP 10 µM; scale = reference: DMSO control; remaining activity = 106%
SMILES = Cc1cc(NC(=O)c2cccc(NC(=O)/C=C/CN(C)C)c2)ccc1Nc1nccc(-c2cccnc2)n1; target = Mitogen-activated protein kinase 8, phosphorylated (MAPK8, Homo sapiens, UniProt P45983); test = enzyme activity after dialysis, inhibitor; conditions = 10 µM, 5 days, unit not given; scale = reference: no inhibitor; remaining activity = 0.0686
SMILES = C=CC(=O)N1CCC[C@@H](n2nc(-c3ccc(Oc4ccccc4)cc3)c3c(N)ncnc32)C1; target = EPHA4 (Homo sapiens, UniProt P54764); conditions = 0.1 µM; remaining activity = 146%
SMILES = C[C@@H]1CC[C@@]2(OC1)O[C@H]1C[C@H]3[C@@H]4CC[C@H]5C[C@@H](O)CC[C@]5(C)[C@H]4CC(=O)[C@]3(C)[C@H]1[C@@H]2C; target = UGT1A4; test = glucuronidation, inhibitor; system = human liver microsomes; conditions = 1 µM, with: probe substrate 0.5 µM; scale = reference: no inhibitor; remaining activity = ~55%
SMILES = O=C1NC(=O)/C(=C/c2ccc(-c3ccc(F)cc3O)o2)S1; target = MAPKAPK2 (Homo sapiens, UniProt P49137); test = enzyme activity; conditions = 10 µM; remaining activity = 80%
SMILES = COc1cc(F)ccc1-c1ncnc(Nc2cccc(C[S@](C)(=N)=O)c2)n1; target = IKBKB (Homo sapiens, UniProt O14920); test = kinase activity; conditions = 10 µM, with: 10 µM ATP; remaining activity = 101%
SMILES = COc1cc(N2CCN(C)CC2)ccc1Nc1nc(N)n(C(=S)NCc2c(Cl)cccc2Cl)n1; target = RIPK2 (Homo sapiens, UniProt O43353); test = enzyme activity; conditions = 10 µM; scale = reference: control; remaining activity = 11%
SMILES = O=C(O)c1ccc(Nc2ncc3c(n2)-c2ccc(Cl)cc2C(c2c(F)cccc2F)=NC3)cc1; target = human JNK3(h); test = kinase activity; conditions = 1 µM; remaining activity = 125%
SMILES = O=c1cc(-c2ccc(O)c(-c3c(O)cc(O)c4c(=O)cc(-c5ccc(O)cc5)oc34)c2)oc2cc(O)cc(O)c12; target = UGT1A4; test = glucuronidation, inhibitor; system = human liver microsomes; conditions = 100 µM, with: probe substrate 0.5 µM; scale = reference: no inhibitor; remaining activity = ~8%
SMILES = O=C(NC1CCC1)c1ccc2nc(-c3cccc(NS(=O)(=O)NCCN4CCCCC4)c3)cn2c1; target = CDK14 (Homo sapiens, UniProt O94921); test = enzyme activity; conditions = 10 µM; remaining activity = 95%
